Experimental data of several laboratories.
Every numbered part comes from another study and shows a few of its results, in no order. Values joined by “and” are separate records of one study, mostly repeats; a detail may differ.
Chain of UniProt Q9H2X6 (whole entry, looked up): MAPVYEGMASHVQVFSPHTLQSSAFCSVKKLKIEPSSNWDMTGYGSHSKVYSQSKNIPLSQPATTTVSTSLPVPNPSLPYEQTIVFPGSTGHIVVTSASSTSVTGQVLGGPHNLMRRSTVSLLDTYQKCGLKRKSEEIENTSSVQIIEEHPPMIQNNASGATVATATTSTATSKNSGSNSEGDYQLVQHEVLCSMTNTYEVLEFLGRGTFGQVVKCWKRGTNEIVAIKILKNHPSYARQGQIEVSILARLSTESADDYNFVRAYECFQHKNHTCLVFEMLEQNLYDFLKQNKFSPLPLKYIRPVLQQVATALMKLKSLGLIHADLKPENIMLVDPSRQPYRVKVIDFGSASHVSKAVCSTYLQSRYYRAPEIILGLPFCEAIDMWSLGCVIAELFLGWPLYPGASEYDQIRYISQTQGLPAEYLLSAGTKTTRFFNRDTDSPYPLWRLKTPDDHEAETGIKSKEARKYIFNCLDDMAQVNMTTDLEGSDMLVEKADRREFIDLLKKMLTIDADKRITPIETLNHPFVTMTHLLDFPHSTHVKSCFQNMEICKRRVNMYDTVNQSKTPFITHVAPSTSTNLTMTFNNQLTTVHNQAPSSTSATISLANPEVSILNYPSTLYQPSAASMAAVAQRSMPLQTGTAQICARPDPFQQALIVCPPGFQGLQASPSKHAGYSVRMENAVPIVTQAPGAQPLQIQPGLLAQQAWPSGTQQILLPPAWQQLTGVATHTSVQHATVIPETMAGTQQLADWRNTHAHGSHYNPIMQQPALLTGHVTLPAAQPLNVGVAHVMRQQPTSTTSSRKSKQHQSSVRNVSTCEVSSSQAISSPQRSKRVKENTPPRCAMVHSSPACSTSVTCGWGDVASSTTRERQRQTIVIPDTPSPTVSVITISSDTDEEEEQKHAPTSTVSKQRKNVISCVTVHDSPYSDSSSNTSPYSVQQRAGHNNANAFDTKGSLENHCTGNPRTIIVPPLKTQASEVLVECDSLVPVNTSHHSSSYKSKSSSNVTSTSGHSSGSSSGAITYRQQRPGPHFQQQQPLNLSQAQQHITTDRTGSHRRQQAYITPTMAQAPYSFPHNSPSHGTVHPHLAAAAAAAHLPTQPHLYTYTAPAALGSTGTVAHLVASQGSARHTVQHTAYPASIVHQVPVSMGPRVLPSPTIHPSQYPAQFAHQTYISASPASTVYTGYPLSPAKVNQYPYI

Block 1
Target: DNA polymerase theta, ATPase domain (POLQ, Homo sapiens, UniProt O75417)
Chain of UniProt O75417 (whole entry, unmodified, looked up): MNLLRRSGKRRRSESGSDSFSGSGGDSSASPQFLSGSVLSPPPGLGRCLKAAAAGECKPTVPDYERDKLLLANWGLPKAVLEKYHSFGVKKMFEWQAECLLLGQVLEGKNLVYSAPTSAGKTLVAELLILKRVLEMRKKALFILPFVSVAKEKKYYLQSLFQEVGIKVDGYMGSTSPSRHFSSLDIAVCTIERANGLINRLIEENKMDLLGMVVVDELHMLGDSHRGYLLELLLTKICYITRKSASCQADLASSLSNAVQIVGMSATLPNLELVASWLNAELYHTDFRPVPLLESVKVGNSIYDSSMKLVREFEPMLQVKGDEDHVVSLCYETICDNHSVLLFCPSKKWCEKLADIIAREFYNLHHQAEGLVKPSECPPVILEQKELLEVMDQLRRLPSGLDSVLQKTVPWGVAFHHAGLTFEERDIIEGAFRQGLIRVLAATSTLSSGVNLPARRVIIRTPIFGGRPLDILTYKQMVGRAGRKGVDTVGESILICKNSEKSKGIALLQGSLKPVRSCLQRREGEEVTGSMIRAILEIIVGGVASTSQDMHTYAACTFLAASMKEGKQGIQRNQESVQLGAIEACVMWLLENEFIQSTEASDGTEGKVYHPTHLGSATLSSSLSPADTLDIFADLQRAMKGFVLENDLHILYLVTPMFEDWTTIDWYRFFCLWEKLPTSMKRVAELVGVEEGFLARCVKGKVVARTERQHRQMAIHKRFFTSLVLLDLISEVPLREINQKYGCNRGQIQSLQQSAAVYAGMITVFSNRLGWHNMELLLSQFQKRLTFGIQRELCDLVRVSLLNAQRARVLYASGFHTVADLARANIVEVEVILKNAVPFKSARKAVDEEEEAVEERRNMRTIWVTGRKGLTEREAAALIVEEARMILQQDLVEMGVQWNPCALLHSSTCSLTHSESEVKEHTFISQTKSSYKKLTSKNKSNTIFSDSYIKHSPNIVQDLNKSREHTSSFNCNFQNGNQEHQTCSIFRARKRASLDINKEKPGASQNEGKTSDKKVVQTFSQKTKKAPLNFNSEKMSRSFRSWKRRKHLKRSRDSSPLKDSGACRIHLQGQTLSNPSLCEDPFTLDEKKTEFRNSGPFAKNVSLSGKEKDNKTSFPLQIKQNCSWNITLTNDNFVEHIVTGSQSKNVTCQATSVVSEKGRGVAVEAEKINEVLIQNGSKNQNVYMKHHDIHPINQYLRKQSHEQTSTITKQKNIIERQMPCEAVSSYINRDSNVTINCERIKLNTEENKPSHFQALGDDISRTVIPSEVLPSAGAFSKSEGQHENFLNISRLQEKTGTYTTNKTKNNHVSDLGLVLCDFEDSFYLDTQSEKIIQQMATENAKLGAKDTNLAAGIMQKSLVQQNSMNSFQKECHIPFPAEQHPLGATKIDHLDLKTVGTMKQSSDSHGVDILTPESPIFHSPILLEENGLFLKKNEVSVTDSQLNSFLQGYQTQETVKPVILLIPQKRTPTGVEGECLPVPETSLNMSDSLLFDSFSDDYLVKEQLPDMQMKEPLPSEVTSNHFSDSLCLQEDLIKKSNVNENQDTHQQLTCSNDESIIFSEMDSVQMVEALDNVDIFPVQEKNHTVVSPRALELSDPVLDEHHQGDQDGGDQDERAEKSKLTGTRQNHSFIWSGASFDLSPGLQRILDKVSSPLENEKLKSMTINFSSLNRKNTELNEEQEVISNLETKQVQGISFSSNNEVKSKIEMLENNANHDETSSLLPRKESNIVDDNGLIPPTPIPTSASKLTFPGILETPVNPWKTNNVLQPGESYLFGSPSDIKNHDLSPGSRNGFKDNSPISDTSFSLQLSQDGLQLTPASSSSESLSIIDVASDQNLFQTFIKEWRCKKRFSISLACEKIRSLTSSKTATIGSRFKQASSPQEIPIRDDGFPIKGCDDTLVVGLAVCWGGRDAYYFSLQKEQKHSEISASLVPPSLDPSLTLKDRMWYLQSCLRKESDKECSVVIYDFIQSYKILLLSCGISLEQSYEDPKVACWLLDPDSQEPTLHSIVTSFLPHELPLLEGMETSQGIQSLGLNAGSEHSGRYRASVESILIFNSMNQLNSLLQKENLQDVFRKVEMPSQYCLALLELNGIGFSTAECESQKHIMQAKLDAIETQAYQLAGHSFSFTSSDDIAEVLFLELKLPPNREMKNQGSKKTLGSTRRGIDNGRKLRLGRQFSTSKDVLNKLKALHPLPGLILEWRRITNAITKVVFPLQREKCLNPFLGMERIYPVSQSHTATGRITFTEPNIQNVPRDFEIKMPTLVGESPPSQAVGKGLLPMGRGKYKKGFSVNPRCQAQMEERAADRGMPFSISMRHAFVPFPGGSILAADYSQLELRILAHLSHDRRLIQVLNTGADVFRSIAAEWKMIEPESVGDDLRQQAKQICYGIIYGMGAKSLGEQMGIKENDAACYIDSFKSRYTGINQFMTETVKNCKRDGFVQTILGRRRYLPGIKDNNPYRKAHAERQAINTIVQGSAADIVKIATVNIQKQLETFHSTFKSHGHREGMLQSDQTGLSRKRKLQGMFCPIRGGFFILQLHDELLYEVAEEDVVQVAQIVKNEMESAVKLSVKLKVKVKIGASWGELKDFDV
Observed: enzyme activity
Action: inhibitor
Tested at: 77 µM
Baseline: untreated
| Structure (SMILES) | remaining activity |
| --- | --- |
| Nc1ncn([C@H]2C[C@H](O)[C@@H](CO)O2)c(=O)n1 | 101% |
| COc1c(C)c2c(c(O)c1C/C=C(\C)CCC(=O)OCCN1CCOCC1)C(=O)OC2 | 81% |
| Cc1ncc(C[n+]2csc(CCO)c2C)c(N)n1 | 88.7% |
| Cc1cc(=O)n(-c2ccccc2)n1C | 99.9% and 98.2% |
| O=C(Nc1ccccc1Br)N[C@@H]1CCN(c2ccc(C(F)(F)F)cn2)C1 | 98.4% |
| O[C@@H](CNC[C@H](O)[C@H]1CCc2cc(F)ccc2O1)[C@@H]1CCc2cc(F)ccc2O1 | 98.1% |
| C=C(c1ccc(C(=O)O)cc1)c1cc2c(cc1C)C(C)(C)CCC2(C)C | 159% |
| Cc1[nH]c(=O)c(C#N)cc1-c1ccc2nccn2c1 | 98.9% |

Block 2
Target: Beta-1 adrenergic receptor (ADRB1, Homo sapiens, UniProt P08588)
Chain of UniProt P08588 (whole entry, looked up): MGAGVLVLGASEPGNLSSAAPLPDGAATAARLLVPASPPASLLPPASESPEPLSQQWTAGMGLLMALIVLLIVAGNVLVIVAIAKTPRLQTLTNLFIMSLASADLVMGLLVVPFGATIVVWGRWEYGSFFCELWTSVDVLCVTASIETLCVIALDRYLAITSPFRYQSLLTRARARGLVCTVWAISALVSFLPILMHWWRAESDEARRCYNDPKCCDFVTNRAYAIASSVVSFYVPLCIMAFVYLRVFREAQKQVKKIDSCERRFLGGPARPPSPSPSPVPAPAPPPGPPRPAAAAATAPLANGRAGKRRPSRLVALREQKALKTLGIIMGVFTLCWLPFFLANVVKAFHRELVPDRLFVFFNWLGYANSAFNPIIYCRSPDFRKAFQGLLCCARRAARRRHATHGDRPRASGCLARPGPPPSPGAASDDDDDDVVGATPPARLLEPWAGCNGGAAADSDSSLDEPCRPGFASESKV
Action: antagonist
| SMILES | IC50 |
| --- | --- |
| Fc1ccc(-c2nnc3ccc(N4CCN(c5ccccn5)CC4)nn23)nc1 | ≥ 100 µM |
| COc1ccccc1N1CCN(C(=O)c2ccc3ccccc3n2)CC1 | ≥ 100 µM |
| COc1cc2oc(=O)ccc2c(OC)c1C[C@@H](O)C(C)(C)O | ≥ 100 µM |
| Cc1ccc(/C=C(/C#N)c2nc(-c3cc4c(ccc5ccccc54)oc3=O)cs2)s1 | ≥ 100 µM |
| Fc1ccc2c(c1)nc1n2[C@@H](CNCc2ccccc2)COC1 | 15.8 µM |
| O=C(c1cc(-c2cccnc2)nc2ccccc12)N1CCCC2(CCOC2)C1 (stereo not shown) | ≥ 100 µM |
| CN(c1cc(=O)c2ccnc(Nc3ccn(C)n3)c2o1)C1CCOCC1 | ≥ 100 µM |
| COc1cc(CN2CC=C(C)CC2)ccc1OCC(O)CN1CCSCC1 (stereo not shown) | ≥ 100 µM |

Block 3
Target: Calcium/calmodulin-dependent protein kinase type II subunit alpha (CAMK2A, Homo sapiens, UniProt Q9UQM7)
Chain of UniProt Q9UQM7 (whole entry, looked up): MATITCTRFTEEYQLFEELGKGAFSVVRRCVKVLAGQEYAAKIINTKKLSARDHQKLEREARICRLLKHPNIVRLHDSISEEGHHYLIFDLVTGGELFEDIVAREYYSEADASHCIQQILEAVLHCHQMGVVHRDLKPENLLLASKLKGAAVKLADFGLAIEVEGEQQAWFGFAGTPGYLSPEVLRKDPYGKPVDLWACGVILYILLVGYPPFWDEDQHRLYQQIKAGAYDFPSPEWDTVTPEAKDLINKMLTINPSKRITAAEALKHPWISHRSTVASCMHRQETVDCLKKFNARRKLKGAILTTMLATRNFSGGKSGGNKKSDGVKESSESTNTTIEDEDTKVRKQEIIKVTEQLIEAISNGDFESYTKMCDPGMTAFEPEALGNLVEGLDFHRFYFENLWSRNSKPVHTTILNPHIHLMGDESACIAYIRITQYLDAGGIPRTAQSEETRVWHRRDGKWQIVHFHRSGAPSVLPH
Observed: enzyme activity
Action: inhibitor
Tested at: 10 µM
| SMILES | inhibition [%] |
| --- | --- |
| CC(=O)OC[C@H]1O[C@@H](n2ccc(=O)[nH]c2=O)[C@H](OC(C)=O)[C@@H]1OC(C)=O | 1 |
| C=C1CCC[C@]2(C)C[C@@H]3OC(=O)C(C)=C3C[C@@H]12 | -3 |
| COc1cc2c(cc1O)CC[N+](C)(C)[C@@H]2Cc1ccc(O)cc1 | -39 |
| Nc1nc(N)c2nc(-c3ccccc3)c(N)nc2n1 | 2 |
| O=C(O)CCCC(O)C(=O)O (stereo not shown) | 1 |
| CC(=O)O[C@H]1C[C@@]2(O)[C@@H](OC(=O)c3ccccc3)[C@@H]3[C@]4(OC(C)=O)CO[C@@H]4C[C@H](O)[C@@]3(C)[C@@H](O)[C@H](OC(C)=O)C(=C1C)C2(C)C | -1 |
| CCC(c1ccccc1)c1c(O)c2ccccc2oc1=O (stereo not shown) | 1 |
| COc1ccc(-c2cc(=O)c3c(O)cc(O)cc3o2)cc1O | -9 |

Single results of other studies
| SMILES | target | observed | method | tested at | quantity | result |
| --- | --- | --- | --- | --- | --- | --- |
| Cn1cncc1[C@](O)(COc1ccc(C#N)cc1-c1ccc(OC(F)(F)F)cc1)c1ccc(C#N)cc1 | Homeodomain-interacting protein kinase 2 (HIPK2, Homo sapiens, UniProt Q9H2X6) | cell-free assay | competition with immobilised ligand | 1 µM | remaining binding | 100% |

Excerpt of the above (block 3):
| SMILES | inhibition [%] |
| --- | --- |
| O=C(O)CCCC(O)C(=O)O (stereo not shown) | 1 |
| CC(=O)O[C@H]1C[C@@]2(O)[C@@H](OC(=O)c3ccccc3)[C@@H]3[C@]4(OC(C)=O)CO[C@@H]4C[C@H](O)[C@@]3(C)[C@@H](O)[C@H](OC(C)=O)C(=C1C)C2(C)C | -1 |
